Published values pooled from the literature.
Each numbered part is a random draw from the data of one study; scales do not carry over between parts. Changes are numbered by the printed parent chain.

Series 1
Target: Sal-like protein 4, full length isoform B (SALL4, Homo sapiens, UniProt Q9UJQ4-2, residues 1-616)
Method: universal PBM
Form: double-stranded DNA, one strand shown
Medium: in vitro
Concentration: not given
Notes: 8-mer, flanks averaged, mean of replicates
Reading: higher = stronger binding
For `GCATGCGC`, the E-score was -0.148.
`TTCGCAAA` gave an E-score of 0.17.
With `ATCTGTGC` the E-score was 0.0387.
With `AGCAATGC` the E-score was 0.0588.
For `GGAGTCGA`, the E-score was -0.249.
`ACTAACAT` has an E-score of 0.187.
With `CATCATTC` the E-score was 0.0111.
With `ACCGGGCA` the E-score was -0.338.
With `CCCTGTAC` the E-score was -0.223.
For `CTCCCGGA`, the E-score was -0.281.
For `GGGACAAC`, the E-score was -0.214.
The E-score of `CCGCAGTC` is reported as -0.269.
For `AGAGAGGA`, the E-score was -0.112.
With `GGCTGTGA` the E-score was -0.139.
The E-score of `CTCGTCAC` is reported as 0.00078.
The E-score of `ACAAGGAT` is reported as 0.213.
`ATTGATGC` gave an E-score of 0.12.
`CATAAAAG` has an E-score of 0.304.
For `TAGATTGA`, the E-score was 0.126.
With `ATACACAA` the E-score was 0.323.
`ATGCCGCC` has an E-score of -0.262.
For `TGCCCCAA`, the E-score was 0.0155.
With `ATACCGCA` the E-score was -0.016.
For `AGTGGAAG`, the E-score was -0.16.

Series 2
Target: Histone acetyltransferase KAT6A, winged helix 2, GST fusion (KAT6A, Homo sapiens, UniProt Q92794, residues 85-181)
Method: protein binding microarray
Form: double-stranded DNA, one strand shown
Medium: in vitro
Concentration: not given
Notes: 8-mer, flanks averaged, mean of 2 arrays, mostly near background
Relative to: not given
Reading: higher = stronger binding
Target sequence (chain): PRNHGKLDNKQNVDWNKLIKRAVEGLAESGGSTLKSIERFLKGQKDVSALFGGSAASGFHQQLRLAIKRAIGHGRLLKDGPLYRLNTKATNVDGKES
`ACGGCTTG` has an E-score of 0.00459.
The E-score of `AACACTAC` is reported as -0.0669.
The E-score of `GCCCGGCA` is reported as 0.218.
`CCCGGGAC` gave an E-score of 0.178.
`CAACTGCG` has an E-score of 0.0741.
For `CCACTCCC`, the E-score was -0.151.
For `GCTAATAA`, the E-score was -0.0676.
With `AGTACCTA` the E-score was -0.104.
For `GCAATTGA`, the E-score was 0.0638.
With `CGTCCACG` the E-score was 0.0343.
`GCATATAC` has an E-score of -0.131.
For `AAATCGAC`, the E-score was -0.0935.
The E-score of `CTGCGAAC` is reported as -0.00212.
With `ACCCTAAA` the E-score was -0.018.
With `CGTTGTCC` the E-score was -0.00354.
With `CTCTAACC` the E-score was -0.196.
`CTTAGTCC` gave an E-score of 0.0198.
With `CTGGTTTA` the E-score was -0.0919.
The E-score of `TTAAGGAA` is reported as -0.0155.
For `GATGGACC`, the E-score was -0.0566.
For `AGTATTAA`, the E-score was -0.0153.
With `CTAGGGAG` the E-score was -0.0326.
`GTTCGAAC` gave an E-score of 0.0655.

Series 3
Target: RNA binding protein fox-1 homolog 2, RRM domain, GST-SBP tag (RBFOX2, Homo sapiens, UniProt O43251-10, residues 100-194)
Method: RNA Bind-n-Seq
Form: RNA
Medium: in vitro
Concentration: 365 nM
Notes: natural RNA segment, single round, ends assumed
Relative to: no-protein control
Reading: higher = stronger binding
All sequences stand within: GGGAGUUCUACAGUCCGACGAUC … UGGAAUUCUCGGGUGCCAA
Target sequence (chain): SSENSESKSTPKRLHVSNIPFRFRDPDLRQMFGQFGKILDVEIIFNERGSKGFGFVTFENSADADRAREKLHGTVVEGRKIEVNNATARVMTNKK
`AUAAAGGAAAGAGGUUUAAUGGACUCAGUUCCACAUGGCUGGGGACGCCUCACAAUCAUGGUGGAAGGCAAGGAGGAGCAAAUCAUGUCUUAUACAUGGAUGGCAGCAGG` — result for “RBNS enrichment (R)”: 0.51.
`ACUAAUGCGCCGGGAAGGCUGGGUGCGUACAAGCAAAGGGCUCCCCAUCAGUCCCGUCCGUCUGUCGCCUUCCCGCAAGCGUCAUCAUCGAAGCCACUGCUCCUGGGAGC`: “RBNS enrichment (R)” 0.315.
For `UCUUCUUCAGUUCAUUAAAAGUAACUACUAAGGAAAGGUUAAAAACUUCCCCUCAAAAAGGAAUCAACCCCAGGAAGUAAUUAUUUACAACGAUUUUCCCAAAUUUUGUA`, “RBNS enrichment (R)” read 0.39.
`AUCAGAGGUCUAAUGGUAGCAAACGACACAGCGACCUUCUUCAUUACUUUGGCCAAGGUUGAAGAUGGCUGUGACGCUAUUAUGCAGGUGUGCACUAGAAAACCCAGUGG` — result for “RBNS enrichment (R)”: 0.383.
`UUUCUCCUUUCUUCCAUUGCUUUGUCCCUCUUCCCCUGUGCUUCCUGCCUUCUUUCCCUGUCCCAUGGGCACAGUCCUCACAGGGAGUGGCCUCCUCUCUCCAGUGAUGU` — result for “RBNS enrichment (R)”: 0.814.
`GAUCUGAGUGAGGCGUAGGAGGGAAGGCGCAUGGACUGGAACUUGCAAGUUGACUCUGGUUAUGCAAGAAUGUGUAACAGAUCAAGAGAUCCUCUCAAGUGUCUAUUAGA` — result for “RBNS enrichment (R)”: 1.75.
For `CCACUUUGCUGAAAAAUACUGUACAUGUGUAAAAUGUUCAGUUGUUUUUUUGUAAAAUAUAGAACAGUUGUAAUUGAUACUGGCCAAAAUCAAUGUUAUUCCAUAUUUUA`, “RBNS enrichment (R)” read 0.627.
`GUGUGUGUUCAUUAUAGGUUAUUCAGCAAAGUGGACCCUGACAGUUUCUCGGUUUCCCCAGUGCUGAAGACAGCAUUGCCAUCCAAAGAAACUCACAUUUUCUUUAAAGC` — result for “RBNS enrichment (R)”: 0.625.
`AAGAGUCUGAGGAUUUCUUCUUACUGGCGUUCUUAAAGGUCUCUAAAAUUAAAGAACAAGAUGUGGUUUUUUGUUUAAGACGUUUUUAGUUUAUUUGUUGUUAAGUUAAA` — result for “RBNS enrichment (R)”: 0.48.
`UAAGGGUUUGUUUUGUUUUGUUUUUUAAAGUAAGGCUGUCUCUCUUUCCCAGUAACAUUCCUGAGUCUACUGUCCUUAUCUUAGUGUUGUACUUGCAUGACAUGGAUAUC`: “RBNS enrichment (R)” 8.25.
`GGGAAGGCCCACAGCCCAAGGGAUCCAUAAUAAUAAUUGCUUGGCCAGCCAUGUGGCCUGCUGGCGUUCCACUGUGGCAUUCUUUGUGGCACCAAGUCUUCACCUGCCCC` — result for “RBNS enrichment (R)”: 0.518.
Under “RBNS enrichment (R)”, `UGUAGAUCAACUAGCCAACGCCCUCAUUGCUUCAUUGUGUCAAAAAACCGAGAGCUUCACUAAAUGGUAGAUUUUGCUGUCAGAGACCCUACAAUAAGAUUGUUUUAUCU` is recorded as 0.646.

Series 4
Target: Ras GTPase-activating protein-binding protein 1, RRM domain (G3BP1, Homo sapiens, UniProt Q13283)
UniProt Q13283, sequence (whole entry, looked up): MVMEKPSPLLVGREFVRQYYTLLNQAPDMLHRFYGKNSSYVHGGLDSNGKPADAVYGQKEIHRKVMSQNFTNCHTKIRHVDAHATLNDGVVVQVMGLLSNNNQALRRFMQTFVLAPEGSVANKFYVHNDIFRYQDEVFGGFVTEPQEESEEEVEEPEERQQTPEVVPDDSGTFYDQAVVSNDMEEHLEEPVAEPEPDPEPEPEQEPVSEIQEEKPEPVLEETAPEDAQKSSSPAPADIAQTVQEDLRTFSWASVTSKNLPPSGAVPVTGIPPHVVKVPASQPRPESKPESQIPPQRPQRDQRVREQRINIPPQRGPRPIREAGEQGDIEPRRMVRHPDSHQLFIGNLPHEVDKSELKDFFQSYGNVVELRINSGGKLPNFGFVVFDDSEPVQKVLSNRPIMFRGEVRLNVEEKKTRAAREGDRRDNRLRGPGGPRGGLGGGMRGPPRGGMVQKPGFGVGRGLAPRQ
Method: RNA Bind-n-Seq
Form: RNA
Medium: in vitro
Concentration: 1 µM
Notes: whole 134-nt RNA, ends assumed
With: 150 mM KCl
Relative to: input library
Reading: higher = stronger binding
All sequences stand within: GGGAGUUCUACAGUCCGACGAUC … UGGAAUUCUCGGGUGUCAAGG
With `CACAGACAACACGCACCCACACAGACACAGAGGGAAGGGGUUGGGAUGGGGGCAGGGUGCACAGCAGGGCGGGGUAGGACCCCAGCCCCU` the log2 enrichment was 0.353.
For `CCUGUGCUACACAUCGUAUGUACCGAAUCGGGGUGGGGAAAAAAAGGGGAAAAAAAGGGGAAAGUAUUAUGUUACGCCGUUCGGAUCUGC`, the log2 enrichment was 0.505.
`UUGCUAACUUCAAGAUAGAGCCUCCUGGACUUUUCCGUGGCCGCGGCAACCACCCCAAGAUGGGCAUGCUGAAGAGACGAAUCAUGCCCG` gave a log2 enrichment of -0.0393.
With `CCUCAAGUCCUGUGCUACACAUCGUAUGUACCGAAUCGGGGUGGGUGGUGGGAAAGUAUUAUGUUACGCCGUUCGGAUCUGCACUUCCAG` the log2 enrichment was 0.0766.
With `UAACUUUAGAGGAGGAUCUGAUGGAUAUGGCAGUGGACGUGGAUUUGGGGGUGGCUAUAAUGGGUAUGGAGGAGGACCUGGAGGUGGCAA` the log2 enrichment was -0.418.
`GAGAGCGAGGUGGCUUCAAUAAGCCUGGUGGUAAGUUUUUGAGUAUUACCAUAGAUAGUGUUUAAAAAAAAAUGCAGUCAGUUUUUAGAA` has a log2 enrichment of -0.0529.
`AGUCCUGUGCUACACAUCGUAUGUACCGAAUCGGAAAAGGGGAAAAGGGGAAAAGGGAAAGUAUUAUGUUACGCCGUUCGGAUCUGCACU` gave a log2 enrichment of 0.154.
`CCUCAAGUCCUGUGCUACACAUCGUAUGUACCGAAUCGGGAGGAGGGAGGGGAAAGUAUUAUGUUACGCCGUUCGGAUCUGCACUUCCAG` gave a log2 enrichment of 0.35.
With `GUCCUGUGCUACACAUCGUAUGUACCGAAUCGGGUUUUUUUGGGAGGGUUUUUUUGGGAAAGUAUUAUGUUACGCCGUUCGGAUCUGCAC` the log2 enrichment was -0.00197.
`ACCACUGCUACAGUCACCACCACCCAGGCCUCCUAUGCAGCUCAGUCUGCAUAUGGCACUCAGCCUGCUUAUCCAGCCUAUGGGCAGCAG` has a log2 enrichment of -0.357.
With `UCAAGUCCUGUGCUACACAUCGUAUGUACCGAAUCGGUGGAAAAAGGAAAAAGGAAAGUAUUAUGUUACGCCGUUCGGAUCUGCACUUCC` the log2 enrichment was -0.0174.
The log2 enrichment of `AAGUCCUGUGCUACACAUCGUAUGUACCGAAUCGGGGUUUUGGGGUUUUGGUUUUGGAAAGUAUUAUGUUACGCCGUUCGGAUCUGCACU` is reported as -0.367.
With `ACCAUGCAGGUGGGCAUCUUUGGGAAGUGGGGCAAGGGGGGGAUAGGGAGGGGGGUAACACUUUGGGAACAGGUGGUCCCAGGUCGUUUG` the log2 enrichment was 0.923.
`AGUCCUGUGCUACACAUCGUAUGUACCGAAUCGGGAAAAAGGAAAAAGGAAAAAGGGAAAGUAUUAUGUUACGCCGUUCGGAUCUGCACU` has a log2 enrichment of -0.0997.

Series 5
Target: ABI1, truncated, D143A, DHFR fusion (Arabidopsis thaliana)
Method: DHFR PCA, deep sequencing
Medium: yeast
Notes: methotrexate growth selection, single substitutions
With: (+)-ABA 710 µM
Relative to: wild-type fitted maximum
Reading: higher = stronger binding
Starting sequence: PYL1, truncated, DHFR fusion (Arabidopsis thaliana); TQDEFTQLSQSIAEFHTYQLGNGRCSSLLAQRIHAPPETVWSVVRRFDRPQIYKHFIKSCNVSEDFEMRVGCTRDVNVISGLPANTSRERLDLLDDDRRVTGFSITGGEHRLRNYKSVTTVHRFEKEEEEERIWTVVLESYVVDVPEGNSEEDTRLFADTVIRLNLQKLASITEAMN
`I105Y`: “relative binding score” -27%.
For `V62Y`, “relative binding score” read 86.7%.
`K116Q`: “relative binding score” 89.9%.
For `L91Y`, “relative binding score” read 17.6%.
`E125C` — result for “relative binding score”: 106%.
`L169H`: “relative binding score” 6.58%.
`E147C` — result for “relative binding score”: 95.9%.
For `A30L`, “relative binding score” read 101%.
`A175L`: “relative binding score” 94.5%.
`A35G` — result for “relative binding score”: 88.6%.
`A175D`: “relative binding score” 97%.
For `V44F`, “relative binding score” read 7.3%.
`P83M` — result for “relative binding score”: 44%.
Under “relative binding score”, `V161K` is recorded as 5.81%.
Under “relative binding score”, `N85D` is recorded as 99.8%.
For `R155P`, “relative binding score” read -9.28%.
`G21I` — result for “relative binding score”: 99.1%.
`L164E`: “relative binding score” 88.1%.

A few entries again (series 2):
With `CTCTAACC` the E-score was -0.196.
With `AGTACCTA` the E-score was -0.104.
The E-score of `AACACTAC` is reported as -0.0669.
With `CGTCCACG` the E-score was 0.0343.
For `GATGGACC`, the E-score was -0.0566.
For `GCTAATAA`, the E-score was -0.0676.
For `AGTATTAA`, the E-score was -0.0153.
With `CTAGGGAG` the E-score was -0.0326.
With `ACCCTAAA` the E-score was -0.018.
With `CGTTGTCC` the E-score was -0.00354.
The E-score of `TTAAGGAA` is reported as -0.0155.
For `CCACTCCC`, the E-score was -0.151.
For `GCAATTGA`, the E-score was 0.0638.
